Assay results gathered from unrelated publications.
Protocols differ between the studies behind these lines. Several values in a cell are separate wells, animals, samples, runs or records. Numbers after ± are the reported error.
Nuclear receptor subfamily 2 group C member 2 ligand-binding domain: Nuclear receptor subfamily 2 group C member 2, ligand-binding domain (Homo sapiens, UniProt P49116)
Chain of UniProt O14980 (whole entry, looked up): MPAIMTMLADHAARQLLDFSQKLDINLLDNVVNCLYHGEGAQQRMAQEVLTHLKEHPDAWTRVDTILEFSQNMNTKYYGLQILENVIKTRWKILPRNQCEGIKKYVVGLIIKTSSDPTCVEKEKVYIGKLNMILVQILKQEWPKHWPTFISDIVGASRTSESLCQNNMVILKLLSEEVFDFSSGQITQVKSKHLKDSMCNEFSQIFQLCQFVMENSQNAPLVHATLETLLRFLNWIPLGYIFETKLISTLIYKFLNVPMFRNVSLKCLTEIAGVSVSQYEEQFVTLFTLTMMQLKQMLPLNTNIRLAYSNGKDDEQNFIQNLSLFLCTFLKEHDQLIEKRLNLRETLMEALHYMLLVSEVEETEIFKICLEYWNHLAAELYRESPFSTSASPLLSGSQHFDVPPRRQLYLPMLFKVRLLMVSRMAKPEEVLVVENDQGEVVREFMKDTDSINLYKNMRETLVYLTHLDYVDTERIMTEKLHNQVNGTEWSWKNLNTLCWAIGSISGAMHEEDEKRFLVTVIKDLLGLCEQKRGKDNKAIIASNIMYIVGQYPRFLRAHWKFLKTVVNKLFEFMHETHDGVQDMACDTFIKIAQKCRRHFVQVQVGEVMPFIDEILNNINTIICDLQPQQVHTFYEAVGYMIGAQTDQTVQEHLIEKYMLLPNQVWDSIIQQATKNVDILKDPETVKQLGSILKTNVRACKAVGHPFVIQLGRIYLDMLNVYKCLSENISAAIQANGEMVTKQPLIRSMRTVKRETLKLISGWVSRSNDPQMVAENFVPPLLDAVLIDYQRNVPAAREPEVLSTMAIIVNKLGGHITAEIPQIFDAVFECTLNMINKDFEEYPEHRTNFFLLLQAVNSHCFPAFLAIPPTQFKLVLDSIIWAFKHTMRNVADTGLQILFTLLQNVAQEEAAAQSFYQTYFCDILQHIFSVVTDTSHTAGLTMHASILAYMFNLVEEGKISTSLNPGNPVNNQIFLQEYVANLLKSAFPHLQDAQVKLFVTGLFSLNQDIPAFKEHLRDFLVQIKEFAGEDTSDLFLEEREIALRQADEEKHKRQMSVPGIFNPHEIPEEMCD
Chain of UniProt Q62351 (whole entry, looked up): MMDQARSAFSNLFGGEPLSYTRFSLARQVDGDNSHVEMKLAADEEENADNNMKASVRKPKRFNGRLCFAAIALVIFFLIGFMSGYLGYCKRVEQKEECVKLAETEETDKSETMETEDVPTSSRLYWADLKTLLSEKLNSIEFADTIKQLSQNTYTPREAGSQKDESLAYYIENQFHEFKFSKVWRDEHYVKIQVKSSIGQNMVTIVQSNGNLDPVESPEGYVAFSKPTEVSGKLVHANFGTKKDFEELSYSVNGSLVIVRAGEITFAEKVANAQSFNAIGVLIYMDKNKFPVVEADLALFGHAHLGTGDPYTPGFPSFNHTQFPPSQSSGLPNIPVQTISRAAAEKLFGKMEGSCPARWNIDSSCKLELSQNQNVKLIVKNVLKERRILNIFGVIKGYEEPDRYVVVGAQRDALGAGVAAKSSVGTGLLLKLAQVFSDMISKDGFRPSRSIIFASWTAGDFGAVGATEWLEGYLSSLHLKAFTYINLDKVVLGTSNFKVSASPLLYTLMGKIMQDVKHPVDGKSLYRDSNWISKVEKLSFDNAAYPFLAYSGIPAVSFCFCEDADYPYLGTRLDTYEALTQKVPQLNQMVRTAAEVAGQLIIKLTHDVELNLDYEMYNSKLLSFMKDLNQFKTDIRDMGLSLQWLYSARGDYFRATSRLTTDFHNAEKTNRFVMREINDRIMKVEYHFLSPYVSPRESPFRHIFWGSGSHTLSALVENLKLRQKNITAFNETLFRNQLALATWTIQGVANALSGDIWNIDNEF
Chain of UniProt P49116 (whole entry, looked up): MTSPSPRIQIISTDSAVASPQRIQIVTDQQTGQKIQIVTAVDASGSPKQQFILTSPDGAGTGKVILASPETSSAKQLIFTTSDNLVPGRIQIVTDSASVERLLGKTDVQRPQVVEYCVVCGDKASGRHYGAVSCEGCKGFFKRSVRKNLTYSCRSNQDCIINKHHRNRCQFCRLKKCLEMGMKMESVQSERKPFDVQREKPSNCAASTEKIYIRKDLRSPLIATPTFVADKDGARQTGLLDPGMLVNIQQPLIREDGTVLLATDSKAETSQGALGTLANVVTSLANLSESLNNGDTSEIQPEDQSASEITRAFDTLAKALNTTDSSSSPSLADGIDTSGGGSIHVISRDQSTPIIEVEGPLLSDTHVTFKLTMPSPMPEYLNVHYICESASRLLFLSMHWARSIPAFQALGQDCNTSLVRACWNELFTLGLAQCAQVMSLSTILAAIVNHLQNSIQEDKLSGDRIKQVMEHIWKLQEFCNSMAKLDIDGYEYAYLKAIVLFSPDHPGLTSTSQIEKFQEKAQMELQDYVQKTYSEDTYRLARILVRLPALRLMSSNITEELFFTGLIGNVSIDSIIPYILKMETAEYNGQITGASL
Chain of UniProt P11388 (whole entry, looked up): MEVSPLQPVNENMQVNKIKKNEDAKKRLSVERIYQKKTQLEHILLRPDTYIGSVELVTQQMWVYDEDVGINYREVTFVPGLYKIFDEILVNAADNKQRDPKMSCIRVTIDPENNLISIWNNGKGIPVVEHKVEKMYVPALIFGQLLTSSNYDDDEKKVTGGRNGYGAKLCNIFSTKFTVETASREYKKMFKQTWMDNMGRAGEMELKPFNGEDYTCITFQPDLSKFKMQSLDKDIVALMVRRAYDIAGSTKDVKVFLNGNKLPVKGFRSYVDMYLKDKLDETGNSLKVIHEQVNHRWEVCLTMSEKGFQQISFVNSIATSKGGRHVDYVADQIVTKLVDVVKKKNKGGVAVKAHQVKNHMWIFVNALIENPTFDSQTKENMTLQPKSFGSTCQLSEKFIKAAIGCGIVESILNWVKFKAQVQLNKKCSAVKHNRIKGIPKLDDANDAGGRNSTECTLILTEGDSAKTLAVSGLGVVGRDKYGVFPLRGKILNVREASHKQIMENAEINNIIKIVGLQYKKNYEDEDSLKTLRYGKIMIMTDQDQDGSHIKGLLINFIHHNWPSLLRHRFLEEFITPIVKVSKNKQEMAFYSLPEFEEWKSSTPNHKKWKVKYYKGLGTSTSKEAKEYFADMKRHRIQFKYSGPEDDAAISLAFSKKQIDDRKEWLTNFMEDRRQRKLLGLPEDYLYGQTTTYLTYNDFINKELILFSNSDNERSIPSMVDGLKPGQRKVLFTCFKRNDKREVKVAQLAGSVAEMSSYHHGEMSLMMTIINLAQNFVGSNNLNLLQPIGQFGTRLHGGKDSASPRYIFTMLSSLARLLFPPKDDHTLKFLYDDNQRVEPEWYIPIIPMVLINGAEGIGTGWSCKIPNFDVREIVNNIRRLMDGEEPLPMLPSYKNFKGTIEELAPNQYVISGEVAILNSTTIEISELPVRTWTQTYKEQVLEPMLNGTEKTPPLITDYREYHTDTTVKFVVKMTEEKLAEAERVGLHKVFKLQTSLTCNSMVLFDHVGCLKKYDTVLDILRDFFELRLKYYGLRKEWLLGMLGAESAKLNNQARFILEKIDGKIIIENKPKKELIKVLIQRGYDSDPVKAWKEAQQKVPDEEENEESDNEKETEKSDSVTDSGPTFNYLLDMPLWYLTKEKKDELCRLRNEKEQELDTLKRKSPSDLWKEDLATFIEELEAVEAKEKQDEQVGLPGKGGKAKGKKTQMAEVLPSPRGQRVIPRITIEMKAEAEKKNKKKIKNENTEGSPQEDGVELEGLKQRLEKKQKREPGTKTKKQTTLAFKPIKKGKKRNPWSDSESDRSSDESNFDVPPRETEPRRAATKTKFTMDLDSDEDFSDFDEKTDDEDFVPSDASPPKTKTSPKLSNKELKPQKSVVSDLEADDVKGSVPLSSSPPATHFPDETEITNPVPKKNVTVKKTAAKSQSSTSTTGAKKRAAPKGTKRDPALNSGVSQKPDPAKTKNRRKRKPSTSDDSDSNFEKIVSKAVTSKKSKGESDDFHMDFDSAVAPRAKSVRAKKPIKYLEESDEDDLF
Chain of UniProt Q9BXA7 (whole entry, looked up): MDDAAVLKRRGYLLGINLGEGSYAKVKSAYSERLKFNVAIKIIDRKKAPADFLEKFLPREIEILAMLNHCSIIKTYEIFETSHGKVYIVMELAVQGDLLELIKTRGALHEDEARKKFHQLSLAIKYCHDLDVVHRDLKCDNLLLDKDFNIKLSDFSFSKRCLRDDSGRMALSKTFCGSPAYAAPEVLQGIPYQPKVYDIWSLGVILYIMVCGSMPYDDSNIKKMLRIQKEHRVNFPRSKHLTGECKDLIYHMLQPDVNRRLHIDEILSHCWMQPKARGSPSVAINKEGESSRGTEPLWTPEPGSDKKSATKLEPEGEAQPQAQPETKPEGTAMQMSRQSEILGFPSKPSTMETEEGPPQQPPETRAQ
Chain of UniProt O08914 (whole entry, looked up): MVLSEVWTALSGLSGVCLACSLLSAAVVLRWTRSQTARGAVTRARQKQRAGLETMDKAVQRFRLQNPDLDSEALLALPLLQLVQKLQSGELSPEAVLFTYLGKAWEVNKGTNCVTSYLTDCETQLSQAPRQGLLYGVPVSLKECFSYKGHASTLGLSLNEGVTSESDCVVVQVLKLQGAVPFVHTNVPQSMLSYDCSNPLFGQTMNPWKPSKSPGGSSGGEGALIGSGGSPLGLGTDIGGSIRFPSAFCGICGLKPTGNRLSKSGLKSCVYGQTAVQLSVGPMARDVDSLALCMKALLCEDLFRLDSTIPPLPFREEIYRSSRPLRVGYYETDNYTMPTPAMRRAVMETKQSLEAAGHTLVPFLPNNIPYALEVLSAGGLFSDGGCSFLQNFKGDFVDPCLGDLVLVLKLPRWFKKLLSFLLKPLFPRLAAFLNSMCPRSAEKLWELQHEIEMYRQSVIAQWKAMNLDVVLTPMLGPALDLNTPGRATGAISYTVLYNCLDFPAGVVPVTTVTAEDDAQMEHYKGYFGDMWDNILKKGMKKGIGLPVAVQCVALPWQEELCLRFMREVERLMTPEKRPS

COc1cc(-c2cncc3c2CN(C)Cc2cc(N4CCNCC4)ccc2-3)cc(OC)c1OC — remaining activity (NEK4 (Homo sapiens, UniProt P51957); kinase activity; 1 µM, human enzyme, added: ATP 10 µM; baseline: DMSO control): 105%
O=C(Nc1cccnn1)N1CCC(=Cc2cccc(Oc3ccc(C(F)(F)F)cn3)c2)CC1 — ED50 (Faah (Mus musculus, UniProt O08914); enzyme activity, inhibitor, ex vivo; rat, brain; oral, 8 h): 4.3 mg/kg
Nc1ncnc2c1ncn2[C@@H]1O[C@H](COP(=O)(O)OP(=O)(O)O)[C@@H](O)[C@H]1O — Km (CKMT1A (Homo sapiens, UniProt P12532); substrate, Kinase-Glo luminescence; pH 7.0, reverse reaction, WT mutant, added: second substrate in excess): 16 ± 30 µM
Nc1ncnc2c1ncn2[C@@H]1O[C@H](CO)[C@@H](O)[C@H]1O — koff (Nuclear receptor subfamily 2 group C member 2 ligand-binding domain; SPR imaging; 600 nM): 7.71e-05 s⁻¹
CC(=O)c1ccc2cc(S(=O)(=O)Nc3ccc(F)cc3)ccc2c1 — Hill slope (STAT3 (Homo sapiens, UniProt P40763); tyrosine phosphorylation, inhibitor, ELISA, item: phospho-Tyr705): -0.424
COc1ccc2c(c1)CN(CCCN1CCN(c3ccccc3OC)CC1)C2=O — inhibition (HTR1A (Homo sapiens, UniProt P08908); radioligand binding; concentration not given, added: [3H]8-OH-DPAT): 98.3%
Cc1ccccc1C1CC(=O)c2c(C)nc(N)nc2C1 (stereo not shown) — fold enrichment (Coatomer subunit beta', WD repeat domain (Homo sapiens, UniProt P35606); binding, affinity selection mass spectrometry; baseline: other proteins in batch): 0.895
CC[S+]([O-])c1nc(-c2ccccc2)cc(C(F)(F)F)n1 (stereo not shown) — cells with nuclear reporter (Exportin-1 (XPO1, Homo sapiens, UniProt O14980); nuclear export, high content imaging; HeLa Kyoto reporter; 1.58 µM, 2 h): 1.27% and 3.63% and 2.47%
N#Cc1ccc2c(-c3ccncc3)c(-c3ccc(F)cc3)nn2c1 — log2 fold change (Serine/threonine-protein kinase CBK1 (CBK1, Candida albicans, UniProt Q5AP53); kinase binding, competitor, MIB/MS competition, item: CBK1; Candida albicans cell lysate; 1 µM; baseline: DMSO): 0.352
O=c1nc(SCc2cc(F)cc(C(F)(F)F)c2)nc(SCc2ccc3nc(Cl)ccc3c2)[nH]1 — linear DNA (TOP2A (Homo sapiens, UniProt P11388); DNA cleavage, competition with etoposide; 15.6 µM, added: etoposide 50 µM): 14.9% and 14.8%
CCCCC[C@H](O)/C=C/[C@H]1C(=O)C[C@H](O)[C@@H]1C/C=C\CCCC(=O)O — activation (PTGDR (Homo sapiens, UniProt Q13258); agonist; 10 µM): 97.6%
C=CC(=O)N1CCC(COCC(=O)N2CCN(c3nc(-c4cnc(N)nc4C(F)F)nc(N4CCOC[C@@H]4C)n3)CC2)CC1 — remaining binding (TSSK1B (Homo sapiens, UniProt Q9BXA7); KINOMEscan; 1 µM): 100%
O=C1OC(c2ccccc2)=N/C1=C\c1ccccc1 — Km (Pancreatic alpha-amylase (Homo sapiens, UniProt P04746); inhibitor, Lineweaver-Burk; 100 ppm, added: starch substrate): 887 µM
Nc1ncnc2c1ncn2[C@@H]1O[C@H](COP(=O)(O)OP(=O)(O)OP(=O)(O)O)[C@@H](O)[C@H]1O — kcat (Hexokinase-3 (HK3, Homo sapiens, UniProt P52790, N221A); substrate; mutant N221A, added: glucose 0.5 mM): 39 ± 22 s⁻¹
Nc1ccc(C(=O)O)c(O)c1 — koff (Nuclear receptor subfamily 2 group C member 2 ligand-binding domain; SPR imaging; 600 nM): 2.2e-05 s⁻¹
CC[C@@H](C)[C@@H](NC(=O)[C@@H](Cc1ccc(O)cc1)NC(=O)[C@H]1CCCN1C(=O)[C@@H](CCCNC(=N)N)NC(=O)[C@H](N)Cc1c[nH]cn1)C(=O)N[C@H](C)C(=O)N[C@H](Cc1c[nH]cn1)C(=O)N[C@H](CCCNC(=N)N)C(=O)N[C@@H](C(=O)N[C@H](Cc1ccc(O)cc1)C(=O)N[C@H](CO)C(=O)N[C@H](Cc1ccccc1)C(N)=O)C(C)C — surface expression (Transferrin receptor protein 1 (Tfrc, Mus musculus, UniProt Q62351); flow cytometry; RAW264.7; 24 h, pH 7.4, unit not given; baseline: 0 h): 1.07 and 1.06

Repeated from above:
O=c1nc(SCc2cc(F)cc(C(F)(F)F)c2)nc(SCc2ccc3nc(Cl)ccc3c2)[nH]1 — linear DNA (TOP2A (Homo sapiens, UniProt P11388); DNA cleavage, competition with etoposide; 15.6 µM, added: etoposide 50 µM): 14.9% and 14.8%
CCCCC[C@H](O)/C=C/[C@H]1C(=O)C[C@H](O)[C@@H]1C/C=C\CCCC(=O)O — activation (PTGDR (Homo sapiens, UniProt Q13258); agonist; 10 µM): 97.6%
